Measurements pooled from the literature.
A part holds a random share of what one study measured.

Block 1 — observed: enzyme activity; action: inhibitor; tested at: 20 µM
Target: Replicase polyprotein 1ab, polymerase (rep, Severe acute respiratory syndrome coronavirus 2, UniProt P0DTD1)
SMILES | inhibition [%]
COC(=O)Nc1nc2cc(C(=O)c3cccs3)ccc2[nH]1 | 2.64
NC(=O)c1ccc(-c2nc(-c3ccccn3)c(-c3ccc4c(c3)OCO4)[nH]2)cc1 | 4.04
O=C1C[C@@]2(C(=O)N1)C(=O)N(Cc1ccc(Br)cc1F)C(=O)c1cccn12 | 1.38
CCCCN(CCCC)CCC(O)c1cc2c(Cl)cc(Cl)cc2c2cc(C(F)(F)F)ccc12 (stereo not drawn) | 8.47
O=C(O)c1cc(-c2ccc(F)cc2F)ccc1O | 30.1
CNc1cc(OC)c(C(=O)N[C@@H]2CCN(Cc3ccccc3)[C@@H]2C)cc1Cl (racemic) | 2.05
O=C1NC(=O)/C(=C/c2ccc3c(c2)OC(F)(F)O3)S1 | -2.32
CC(C)(C)c1ccc(S(=O)(=O)Nc2ccc(Cl)cc2C(=O)c2cc[n+]([O-])cc2)cc1 | 5.58
CC(C)[C@H](N)C(=O)OCC(CO)OCn1cnc2c(=O)nc(N)[nH]c21 (stereo partly drawn) | -4.52
COc1ccnc(C[S+]([O-])c2nc3cc(OC(F)F)ccc3[nH]2)c1OC (stereo not drawn) | 6.02
O=C(O)Cc1cccnc1C(=O)O | -9.37
O=C(NCCN1CCN(c2ncccn2)CC1)C12CC3CC(CC(C3)C1)C2 | -1.53
CS(=O)(=O)c1ccc(-c2cc(Br)sc2-c2ccc(F)cc2)cc1 | -0.45
O=C(Nc1nc2cccc(-c3ccc(CN4CCS(=O)(=O)CC4)cc3)n2n1)C1CC1 | 0.9
CCC[N@+]12[C@H](O)[C@@H](CC)[C@@H]3C[C@H]1[C@@H]1N(C)c4ccccc4[C@]14C[C@H]2[C@H]3[C@H]4O | 1.34
C[C@]12CCC(=O)C[C@@H]1CC[C@@H]1[C@@H]2CC[C@]2(C)C=CC[C@@H]12 | -4.55
CCOc1ccc(-c2ccc(Cn3c(CC(C)(C)C(=O)O)c(SC(C)(C)C)c4cc(OCc5ccc(C)cn5)ccc43)cc2)cn1 | 7.14
O=C(Cn1ccnc1[N+](=O)[O-])NCCO | 1.89
C[C@H](N)C(=O)N[C@@]1(C(=O)O)C[C@@H](Sc2nnc[nH]2)[C@H]2[C@H](C(=O)O)[C@H]21 | 3.23
Nc1cccc2c(=O)[nH][nH]c(=O)c12 | 0.25
CC(=O)N(CC(O)CN(C(C)=O)c1c(I)c(C(=O)NC[C@@H](O)CO)c(I)c(C(=O)NC[C@@H](O)CO)c1I)c1c(I)c(C(=O)NC[C@@H](O)CO)c(I)c(C(=O)NC[C@@H](O)CO)c1I | -2.51
COc1ccc(Cc2nccc3cc(OC)c(OC)cc23)cc1OC | 24.5
CCN1CCN(Cc2ccc(C(=O)Nc3ccc(C)c(Oc4ccc5c(c4)CC(=O)N5)c3)cc2C(F)(F)F)CC1 | -18.8
Clc1cccc(SC2CCNCC2)n1 | 9.08
CN1Cc2c(N)cccc2C(c2ccccc2)C1 (stereo not drawn) | -2.94

Block 2 — technique: protein-binding microarray; form: double-stranded DNA, one strand shown; matrix: in vitro; tested at: not given; direction: higher = stronger binding
Target: Protein max, full length (MAX, Homo sapiens, UniProt P61244-2, residues 1-151)
Notes: k-mer, scored over probes, only values ≥0.25
Oligonucleotide | E-score
ATGTGGTC | 0.339
CATGAGGA | 0.391
CGGCGTGC | 0.393
ACGTGACC | 0.452
CACAGGTG | 0.32
CGCACCCC | 0.288
GCATGGCC | 0.408

Block 3 — technique: RNA Bind-n-Seq; form: RNA; matrix: in vitro; tested at: 200 nM; notes: whole 134-nt RNA, ends assumed; added: 150 mM LiCl; reference: input library; direction: higher = stronger binding; all molecules: 7-deaza-guanosine replaces G
Target: Ras GTPase-activating protein-binding protein 1, full length (G3BP1, Homo sapiens, UniProt Q13283)
UniProt Q13283, sequence (whole entry, looked up): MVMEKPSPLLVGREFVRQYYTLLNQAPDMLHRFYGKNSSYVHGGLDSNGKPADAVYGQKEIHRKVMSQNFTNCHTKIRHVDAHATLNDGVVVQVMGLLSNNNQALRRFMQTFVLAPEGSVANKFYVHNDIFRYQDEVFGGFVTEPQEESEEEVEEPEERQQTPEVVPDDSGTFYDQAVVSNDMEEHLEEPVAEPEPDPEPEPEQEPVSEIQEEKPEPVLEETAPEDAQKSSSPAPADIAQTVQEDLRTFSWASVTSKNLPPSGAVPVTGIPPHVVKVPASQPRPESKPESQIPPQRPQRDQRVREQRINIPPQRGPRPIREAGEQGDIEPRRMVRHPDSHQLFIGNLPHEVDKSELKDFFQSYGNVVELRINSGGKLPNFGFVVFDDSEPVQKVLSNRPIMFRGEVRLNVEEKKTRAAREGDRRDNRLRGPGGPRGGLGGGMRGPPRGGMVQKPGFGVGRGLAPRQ
All sequences stand within: GGGAGUUCUACAGUCCGACGAUC … UGGAAUUCUCGGGUGUCAAGG
Oligonucleotide | log2 enrichment
UGGCCCUGGUGGCAUGCAGGGAGGAAGAGGUGGCCUCAUGGAUCGUGGUGGUCCCGGUGGAAUGUUCAGAGGUGGCCGUGGUGGAGACAG | 0.646
GCAGGAAGUAAAAACAAAUGGAAAUGCUUCGGAUAGCGGCAGGGGUGGGGGUUGCUAAGGAAAGGGUGGGAUGGGAGUGGGUAAAGAGUU | 0.0242
CAAGUCCUGUGCUACACAUCGUAUGUACCGAAUCGGGUUUUUGGGUUUGGGAGGGAAAGUAUUAUGUUACGCCGUUCGGAUCUGCACUUC | -0.21
CACAGACAACACGCACCCACACAGACACAGAGGGAAGGGGGUGGGAUGGGGACAGGGUGCACAGCAGGGCGGGGUAGGACCCCAGCCCCU | -1.22
AGUCCUGUGCUACACAUCGUAUGUACCGAAUCGGGGAAAAGGGGAAAAGGGGAAAAGGAAAGUAUUAUGUUACGCCGUUCGGAUCUGCAC | 0.216
AGUCCUGUGCUACACAUCGUAUGUACCGAAUCAAACCCCCAAAUUUUUAAAUUUAAAAAAGUAUUAUGUUACGCCGUUCGGAUCUGCACU | 0.514
UGGCCCUGGUGGCAUGCGGGGAGGAAGAGGUGGCCUCAUGGAUCGUGGUGGUCCCGGUGGAAUGUUCAGAGGUGACCGUGGUGGAGACAG | 0.264
UGGCCCUGGUGGCAUUCGGGGAGGAAGAGGUGGCCUCAUGGAUCGUGGUGGUCCCGGUGGAAUGUUCAGAGGUGGCCGUGGUGGAGACAG | 0.189

Block 4 — cell line: HEK-293T-ACE2; tested at: concentration not given; reference: vehicle
Compound | cell number [%]
CC(CN(C)C)CN1c2ccccc2Sc2ccccc21.CC(CN(C)C)CN1c2ccccc2Sc2ccccc21.O=C(O)C(O)C(O)C(=O)O (stereo not drawn) | 101
O=C([O-])[C@H](O)[C@@H](O)[C@H](O)[C@H](O)CO.[Na+] | 102
COc1c(-c2ccc3cc(NS(C)(=O)=O)ccc3c2)cc(-n2ccc(=O)[nH]c2=O)cc1C(C)(C)C | 102

Block 5 — technique: universal PBM; form: double-stranded DNA, one strand shown; matrix: in vitro; tested at: not given; direction: higher = stronger binding
Target: Sal-like protein 4, full length isoform B (SALL4, Homo sapiens, UniProt Q9UJQ4-2, residues 1-616)
Notes: 8-mer, flanks averaged, mean of replicates
Construct (chain): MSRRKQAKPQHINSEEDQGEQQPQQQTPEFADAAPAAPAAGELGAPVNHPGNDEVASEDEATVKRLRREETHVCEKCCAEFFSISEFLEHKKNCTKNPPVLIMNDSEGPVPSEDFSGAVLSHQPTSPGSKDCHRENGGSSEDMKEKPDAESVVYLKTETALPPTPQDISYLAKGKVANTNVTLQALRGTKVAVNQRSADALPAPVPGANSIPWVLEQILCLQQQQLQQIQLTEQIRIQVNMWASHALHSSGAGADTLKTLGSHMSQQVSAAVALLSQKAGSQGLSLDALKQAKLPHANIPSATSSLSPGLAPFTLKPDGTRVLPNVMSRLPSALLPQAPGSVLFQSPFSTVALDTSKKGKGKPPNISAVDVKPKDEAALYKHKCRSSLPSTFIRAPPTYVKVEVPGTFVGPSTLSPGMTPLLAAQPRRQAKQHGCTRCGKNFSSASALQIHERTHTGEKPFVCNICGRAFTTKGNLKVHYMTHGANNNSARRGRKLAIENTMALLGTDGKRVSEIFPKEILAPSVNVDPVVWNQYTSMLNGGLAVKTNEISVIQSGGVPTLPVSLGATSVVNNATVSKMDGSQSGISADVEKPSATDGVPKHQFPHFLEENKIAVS
Oligonucleotide | E-score
GGTGATAA | 0.19
CCATCTAG | 0.0174
GGCCAGAC | -0.313
CCGGTTGA | -0.304
ATCAGGGG | -0.127
CATCGGGA | -0.114
CCCATTCG | -0.181
CAGTGTAC | -0.0833

Block 6 — observed: enzyme activity; action: inhibitor; tested at: 20 µM; notes: primary screen
Target: Replicase polyprotein 1ab, main protease (rep, Severe acute respiratory syndrome coronavirus 2, UniProt P0DTD1)
Structure (SMILES) | inhibition [%]
CN(C)c1ccc2c(c1)Sc1cc(N(C)C)ccc1N2 | 41.9
C[n+]1c2cc(N)ccc2cc2ccc(N)cc21.Nc1ccc2cc3ccc(N)cc3nc2c1 | 59
c1ccc2sc(SN3CCOCC3)nc2c1 | 99

For quick reference, copied from above (block 1):
SMILES | inhibition [%]
CS(=O)(=O)c1ccc(-c2cc(Br)sc2-c2ccc(F)cc2)cc1 | -0.45
O=C(Nc1nc2cccc(-c3ccc(CN4CCS(=O)(=O)CC4)cc3)n2n1)C1CC1 | 0.9
CCC[N@+]12[C@H](O)[C@@H](CC)[C@@H]3C[C@H]1[C@@H]1N(C)c4ccccc4[C@]14C[C@H]2[C@H]3[C@H]4O | 1.34
